{"data": "Experimental data from different studies", "note": "Each numbered part is a random draw from the data of one study; scales do not carry over between parts."}
{"data": "Study 1", "target": "PABPC1L2, full length, GST fusion (mouse, UniProt A0ABA7IW68)", "method": "RNAcompete", "molecule type": "RNA", "medium": "in vitro", "concentration": "20 nM", "notes": "7-mer, probes averaged, single round", "relative to": "mean of 7-mers", "direction": "higher = stronger binding", "Construct (chain)": "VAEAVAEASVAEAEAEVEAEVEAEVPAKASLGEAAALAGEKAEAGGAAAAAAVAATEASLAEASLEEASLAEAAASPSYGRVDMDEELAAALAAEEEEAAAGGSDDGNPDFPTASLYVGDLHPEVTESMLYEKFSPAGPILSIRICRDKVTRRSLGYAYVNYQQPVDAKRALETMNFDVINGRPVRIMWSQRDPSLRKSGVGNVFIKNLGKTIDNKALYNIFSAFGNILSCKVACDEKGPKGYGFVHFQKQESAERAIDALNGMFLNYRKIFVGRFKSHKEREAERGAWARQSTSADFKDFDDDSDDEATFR"}
{"Sequence": "GGCUUAC", "7-mer Z-score": -0.0518}
{"Sequence": "ACCAUCU", "7-mer Z-score": -0.267}
{"Sequence": "AUUACUC", "7-mer Z-score": -0.258}
{"Sequence": "CGGCUAU", "7-mer Z-score": -0.161}
{"Sequence": "AUCCGCC", "7-mer Z-score": -0.519}
{"Sequence": "UUUAUGU", "7-mer Z-score": -0.132}
{"Sequence": "AAGGCAA", "7-mer Z-score": 0.407}
{"Sequence": "GGUAUGG", "7-mer Z-score": 0.0315}
{"data": "Study 2", "target": "RNA binding protein fox-1 homolog 2, RRM domain, GST-SBP tag (RBFOX2, Homo sapiens, UniProt O43251-10, residues 100-194)", "method": "RNA Bind-n-Seq", "molecule type": "RNA", "medium": "in vitro", "concentration": "365 nM", "notes": "natural RNA segment, single round, ends assumed", "relative to": "no-protein control", "direction": "higher = stronger binding", "all sequences stand within": "GGGAGUUCUACAGUCCGACGAUC … UGGAAUUCUCGGGUGCCAA", "Residues (chain)": "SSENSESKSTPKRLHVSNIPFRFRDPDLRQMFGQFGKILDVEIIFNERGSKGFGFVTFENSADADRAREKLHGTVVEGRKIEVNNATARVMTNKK"}
{"Sequence": "GGAUCAGAACUUACAAACCAAACUUUUAUUCUGAGAAACUGGCUGUACAAUAUCUAAAAAGAAAGUGACAUGAAGGAAGCAAUCUACAACUUCCUUCCGCUUAGCGAGCA", "RBNS enrichment (R)": 0.586}
{"Sequence": "CCCACUAAAGGAAAAGCUAAUUCUAUUGCCCCAGGGUGCAUAUUUCUAUGCCUUAUUUGAGUUAUCACUUGGAGGGAGGUGGAAGUUGACUCUCUUUUUCACUGUAGAAU", "RBNS enrichment (R)": 0.513}
{"Sequence": "UAGUGAAGUUCUUUUACUGUAAUUGGUGACAAUGUCACAUAAUGAAUGCUAUUGAAAAGGUUAACAGAUACAGCUCGGAGUUGUGAGCACUCUACUGCAAGACUUAAAUA", "RBNS enrichment (R)": 16}
{"Sequence": "CCGCUUCCACCACCAUGGUGUUUGUUUCUAGAACUUUUGCCAGUCCUUGAAGAAUGGGUUCUGUGUCUAAUCCUGAAACAAAGAAAACUACAAGCUGGAGUGUAGGAAUU", "RBNS enrichment (R)": 0.305}
{"Sequence": "UGAAGGAGUUAAUUAAAAGAGAGCCAAUAAAAUGAUUUUACUCAUUCAGUAUCUGAGUACUGGAAGUGAAACAUGAGGAAUGCUUUAGUGUAAUGUGGGAGAACUUUUUU", "RBNS enrichment (R)": 0.896}
{"Sequence": "AUCCCUUCCAGGCACAGCGAGUUGGUUCUGCUUUUUGCCUGUAAGCCAAAGAAAAGCCACAUCUAAAAAGCUACUACUAAAAGCCAGAAAGAAAAGUGGAUUUGAACUCA", "RBNS enrichment (R)": 0.395}
{"Sequence": "UGCUCAGUGCUGAACUAUAACUGCCACACGUCCCCUCAUAUCAAAUGGAGCAGUGGCAAUCUCCCUGUUCCCCAACCUAACUCUUGGAACUUGGCCCUCUCCUUUCUUCC", "RBNS enrichment (R)": 0.432}
{"Sequence": "UUAAUGCAAAUCCAUUACAUGGUGCUAUUAUAGGCUGACAAAAUGAUUUACACAAAUGUGACAACUUGGGCUCAAUUCACUCUGCUUUCCAACAGUGUAAAUGCAUAGCA", "RBNS enrichment (R)": 0.363}
{"data": "Mixed results"}
{"Structure (SMILES)": "CCCOc1ccc([C@@H]2[C@@H](C(=O)O)[C@H](c3ccc4c(c3)OCO4)CN2CC(=O)Nc2c(CC)cccc2CC)cc1", "tested on": "Tyrosine-protein kinase ABL1, phosphorylated (ABL1, Homo sapiens, UniProt P00519, T315I)", "assay": "cell-free assay, competition with immobilised ligand", "conditions": "1 µM", "measurement": "remaining binding", "value": "82%"}
{"Structure (SMILES)": "CCOC(=O)[C@@H]1CSCC(=O)N[C@@H](CC)C(=O)N(C)[C@@H](C)C(=O)N[C@H](CC(C)C)C(=O)N2CCC[C@H]2C(=O)N(CC)CC(=O)N[C@H](CC(C)C)C(=O)N(C)[C@@H](C)C(=O)N[C@@H](CC(C)C)C(=O)N1C", "system": "hydrocarbon/water", "measurement": "logD", "value": 1.68}
{"note": "Repeated from above (study 2):"}
{"Sequence": "GGAUCAGAACUUACAAACCAAACUUUUAUUCUGAGAAACUGGCUGUACAAUAUCUAAAAAGAAAGUGACAUGAAGGAAGCAAUCUACAACUUCCUUCCGCUUAGCGAGCA", "RBNS enrichment (R)": 0.586}
{"Sequence": "CCCACUAAAGGAAAAGCUAAUUCUAUUGCCCCAGGGUGCAUAUUUCUAUGCCUUAUUUGAGUUAUCACUUGGAGGGAGGUGGAAGUUGACUCUCUUUUUCACUGUAGAAU", "RBNS enrichment (R)": 0.513}
